Published values pooled from the literature.
Lines come from different studies, so protocols differ. Several values in a cell are separate wells, animals, samples, runs or records. ± gives the spread as reported.
ABCG2: Broad substrate specificity ATP-binding cassette transporter ABCG2 (ABCG2, Homo sapiens, UniProt Q9UNQ0)
Sequence of UniProt Q9UNQ0 (whole entry, looked up): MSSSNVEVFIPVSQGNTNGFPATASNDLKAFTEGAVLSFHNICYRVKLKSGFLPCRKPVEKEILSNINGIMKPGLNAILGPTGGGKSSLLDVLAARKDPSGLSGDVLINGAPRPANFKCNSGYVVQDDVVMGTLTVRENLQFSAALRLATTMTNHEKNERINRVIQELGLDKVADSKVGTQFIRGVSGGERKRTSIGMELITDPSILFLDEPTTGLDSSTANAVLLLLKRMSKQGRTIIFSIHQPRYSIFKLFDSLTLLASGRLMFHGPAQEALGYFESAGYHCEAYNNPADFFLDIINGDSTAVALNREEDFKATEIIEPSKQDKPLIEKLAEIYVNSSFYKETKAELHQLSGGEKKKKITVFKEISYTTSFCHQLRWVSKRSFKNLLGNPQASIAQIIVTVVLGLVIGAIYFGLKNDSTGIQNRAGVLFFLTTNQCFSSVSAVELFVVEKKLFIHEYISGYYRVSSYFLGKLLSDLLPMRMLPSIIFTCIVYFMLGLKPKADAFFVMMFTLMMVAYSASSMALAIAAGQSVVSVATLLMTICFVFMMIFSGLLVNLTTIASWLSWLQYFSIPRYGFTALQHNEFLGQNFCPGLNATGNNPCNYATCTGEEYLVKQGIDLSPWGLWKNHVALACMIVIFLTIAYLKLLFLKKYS
CYP3A4: Cytochrome P450 3A4 (CYP3A4, Homo sapiens, UniProt P08684)
Sequence of UniProt P08684 (whole entry, looked up): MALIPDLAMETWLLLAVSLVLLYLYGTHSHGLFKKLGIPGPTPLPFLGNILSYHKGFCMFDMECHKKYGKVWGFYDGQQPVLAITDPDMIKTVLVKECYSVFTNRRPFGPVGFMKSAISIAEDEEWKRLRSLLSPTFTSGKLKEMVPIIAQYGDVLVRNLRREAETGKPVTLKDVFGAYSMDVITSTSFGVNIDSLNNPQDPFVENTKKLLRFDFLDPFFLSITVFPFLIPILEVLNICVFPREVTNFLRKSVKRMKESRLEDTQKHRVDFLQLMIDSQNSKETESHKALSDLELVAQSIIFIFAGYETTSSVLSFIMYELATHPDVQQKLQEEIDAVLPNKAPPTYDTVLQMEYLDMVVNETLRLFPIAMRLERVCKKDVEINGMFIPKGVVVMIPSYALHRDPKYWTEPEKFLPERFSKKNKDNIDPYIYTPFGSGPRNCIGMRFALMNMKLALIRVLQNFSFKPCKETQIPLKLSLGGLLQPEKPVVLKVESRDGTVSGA
KCNH2: Voltage-gated inwardly rectifying potassium channel KCNH2 (KCNH2, Homo sapiens, UniProt Q12809)
CYP2A6: Cytochrome P450 2A6 (CYP2A6, Homo sapiens, UniProt P11509)
Sequence of UniProt P11509 (whole entry, looked up): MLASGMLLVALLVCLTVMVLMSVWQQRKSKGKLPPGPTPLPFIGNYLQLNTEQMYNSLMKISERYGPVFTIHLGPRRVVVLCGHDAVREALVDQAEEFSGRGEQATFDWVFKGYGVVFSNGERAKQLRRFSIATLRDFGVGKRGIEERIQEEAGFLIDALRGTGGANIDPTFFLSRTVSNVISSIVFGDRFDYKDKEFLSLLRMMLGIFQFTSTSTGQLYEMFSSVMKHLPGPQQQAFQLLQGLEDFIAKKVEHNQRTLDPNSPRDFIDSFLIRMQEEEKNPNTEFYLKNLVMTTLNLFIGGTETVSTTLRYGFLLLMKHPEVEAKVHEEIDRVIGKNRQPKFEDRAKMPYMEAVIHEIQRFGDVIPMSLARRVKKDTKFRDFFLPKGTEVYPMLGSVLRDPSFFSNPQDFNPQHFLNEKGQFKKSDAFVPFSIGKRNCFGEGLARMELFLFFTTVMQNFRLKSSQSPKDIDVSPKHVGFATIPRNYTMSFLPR
Sequence of UniProt Q70CQ1 (whole entry, looked up): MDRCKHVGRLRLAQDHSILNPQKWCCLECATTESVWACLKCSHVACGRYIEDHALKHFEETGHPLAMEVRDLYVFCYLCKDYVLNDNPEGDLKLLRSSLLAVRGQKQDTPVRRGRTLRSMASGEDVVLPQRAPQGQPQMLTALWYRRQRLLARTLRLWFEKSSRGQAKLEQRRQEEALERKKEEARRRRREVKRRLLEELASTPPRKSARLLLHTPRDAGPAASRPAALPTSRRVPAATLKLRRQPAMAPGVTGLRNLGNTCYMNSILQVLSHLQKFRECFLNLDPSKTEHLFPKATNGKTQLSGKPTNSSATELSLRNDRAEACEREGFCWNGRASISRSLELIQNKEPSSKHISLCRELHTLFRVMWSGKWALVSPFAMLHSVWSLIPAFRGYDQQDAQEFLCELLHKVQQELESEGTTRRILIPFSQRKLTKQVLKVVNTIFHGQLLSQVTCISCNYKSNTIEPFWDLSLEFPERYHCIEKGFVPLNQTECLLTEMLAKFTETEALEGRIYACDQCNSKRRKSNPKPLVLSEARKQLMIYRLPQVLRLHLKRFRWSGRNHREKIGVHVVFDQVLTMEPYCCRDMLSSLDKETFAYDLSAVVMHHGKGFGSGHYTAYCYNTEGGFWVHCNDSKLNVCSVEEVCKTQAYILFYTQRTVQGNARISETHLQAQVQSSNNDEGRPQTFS
Sequence of UniProt Q53GS9 (whole entry, looked up): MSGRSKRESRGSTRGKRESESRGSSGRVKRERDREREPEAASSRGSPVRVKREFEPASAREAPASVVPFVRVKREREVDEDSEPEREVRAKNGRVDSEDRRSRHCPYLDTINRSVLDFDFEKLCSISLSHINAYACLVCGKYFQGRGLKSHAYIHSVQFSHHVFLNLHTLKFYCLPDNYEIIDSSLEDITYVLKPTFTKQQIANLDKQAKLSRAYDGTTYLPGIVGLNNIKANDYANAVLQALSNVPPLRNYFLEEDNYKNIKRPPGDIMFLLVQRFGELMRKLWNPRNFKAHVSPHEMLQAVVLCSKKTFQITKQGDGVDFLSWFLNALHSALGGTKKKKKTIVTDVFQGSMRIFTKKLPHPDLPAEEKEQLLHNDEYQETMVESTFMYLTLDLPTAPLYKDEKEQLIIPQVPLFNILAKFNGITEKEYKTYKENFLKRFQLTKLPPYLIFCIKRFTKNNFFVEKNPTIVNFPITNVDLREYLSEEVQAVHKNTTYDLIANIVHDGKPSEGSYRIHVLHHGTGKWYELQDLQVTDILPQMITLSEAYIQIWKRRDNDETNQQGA

SMILES	tested on	test	system	conditions	how to read	endpoint	value
CC(C)c1nc(N(C)S(C)(=O)=O)nc(-c2ccc(F)cc2)c1/C=C/[C@@H](O)C[C@@H](O)CC(=O)O	ABCG2	substrate	Caco-2	5 µM, 2 h, with: Ko143 5 µM	relative to: B to A over A to B	efflux ratio	21.2
COc1ccc(F)cc1C(=O)NCc1ccc(-c2nn([C@@H](C)C(F)(F)F)c(N)c2C(N)=O)cc1	CYP3A4	–	human liver microsomes	–	–	fraction unbound	0.97
Cc1cc(Nc2ncnc3ccc(NC4=NC(C)(CO)CO4)cc23)ccc1Oc1ccn2ncnc2c1 (centres unmarked)	CYP3A4	–	healthy volunteers, plasma	oral, 300 mg tucatinib, day 1	–	%AUCextrap, median	5.76%
NC(=NCc1ccccc1)NC(=O)c1nc(Cl)c(N)nc1N	Genome polyprotein, 3D RNA polymerase (Coxsackievirus B3, UniProt P03313)	AMP incorporation, pre-steady-state burst	–	–	relative to: without over with Mg2+ preincubation	IC50 shift	5 fold
[H]/N=C(/N)c1ccc(NCc2nc3cc(C(=O)N(CCC(=O)O)c4ccccn4)ccc3n2C)cc1	P-glycoprotein	substrate	healthy human, plasma	oral, dose not given, adjusted geometric mean, with: vepdegestrant	relative to: with vepdegestrant over alone	AUCinf ratio	198%
CC[C@H]1[C@@H](O)[C@@H]2[C@H](CC[C@]3(C)[C@@H]([C@H](C)CCNC(=O)NS(=O)(=O)c4ccc(C(C)(C)C)cc4)CC[C@@H]23)[C@@]2(C)CC[C@@H](O)C[C@@H]12	CYP3A4	–	human, plasma	dose not given, mean, alone	–	AUC(0-inf)	426 ng·h/mL
O=C(O)Cn1ccc2ccccc2c1=O	Ubiquitin carboxyl-terminal hydrolase 49, ZnF-UBD domain (USP49, Homo sapiens, UniProt Q70CQ1)	–	–	–	–	Kd	> 1 mM
CCOc1cc2ncc(C#N)c(Nc3ccc(OCc4ccccn4)c(Cl)c3)c2cc1NC(=O)/C=C/CN(C)C	ABCG2	bidirectional transwell permeability	MDCKII cells transfected with ABCG2	1 µM, 1 h, pH 7.4, with: Ko143 1 µM	–	efflux ratio	1.4 ± 0.16
CC1(F)CN(C(=O)Cn2c(=O)c(C(=O)NCc3ccc(Cl)cc3)cc3nc(N4CCOC4=O)cnc32)C1	KCNH2	ion current, inhibitor	–	–	–	Hill slope	1.41
CC(C)C[C@H](NC(=O)C[C@H](O)[C@H](CC(C)C)NC(=O)[C@H](Cc1c[nH]cn1)NC(=O)CNC(=O)[C@@H](NC(=O)[C@H](C)NC(=O)[C@H](Cc1c[nH]c2ccccc12)NC(=O)[C@H](CCC(N)=O)NC(=O)[C@@H](Cc1ccccc1)NC(=O)COCCOCCNC(=O)CCC(C(=O)O)N1CCN(CC(=O)O)CCN(CC(=O)O)CCN(CC(=O)O)CC1)C(C)C)C(N)=O (some centres unmarked) [lutetium-177 labelled]	–	–	female BALB/c nu/nu mice, muscle	intravenous, 50 pmol, 1 h	–	tissue uptake	0.13 ± 0.04 %ID/g
C[C@]12CCCN1CC1=NNC(=O)c3cc(F)cc4[nH]c2c1c34	ABCG2	substrate	membrane vesicles	5 µM, with: ATP	–	uptake rate	2.2 ± 0.344 pmol/min/mg
COc1cc(O)c(CC=C(C)C)c2c1C(=O)CC(c1ccc(O)cc1)O2 (centres unmarked)	CYP3A4 (human)	enzyme activity, inhibitor	human liver microsomes	1 µM, pH 7.4, with: midazolam	–	inhibition	< 10%
O=C(O)CCC(=O)Nc1cccc2ccccc12	Ubiquitin carboxyl-terminal hydrolase 39, ZnF-UBD domain (Homo sapiens, UniProt Q53GS9)	–	–	–	–	Kd	> 1 mM
C[C@H]1CN(C2COC2)CCN1c1ccc(Nc2cc(-c3ccnc(N4CCn5c(cc6c5CC(C)(C)C6)C4=O)c3CO)cn(C)c2=O)nc1	CYP2A6	substrate	recombinant enzyme	1 µM, 60 min	–	remaining compound	104 ± 9%
CC(CC(=O)O)CC(=O)O	–	binding, equilibrium dialysis LC-MS	–	5 µM, thermostabilized A2AR-BRIL construct	relative to: no-protein control, direction not given	z-scored log2 fold change	-0.414
N#C[C@H](C[C@@H]1CCCNC1=O)NC(=O)[C@H](CC1CC1)NC(=O)c1cc2cccc(Cl)c2[nH]1	CYP2A6	NADPH metabolic stability	–	2 µM, pH 7.4, 37 °C, 100 pmol/mL enzyme	–	half-life	> 2.13 h
Cc1cc(/C=C/C#N)cc(C)c1Nc1ccnc(Nc2ccc(C#N)cc2)n1	KCNH2	hERG current, manual patch clamp	CHO stably expressing hERG	1 µM	–	inhibition	41.9%
C[C@@H](c1ccc2nccn2c1)n1nnc2ncc(-c3cnn(C)c3)nc21	CYP2A6	enzyme activity, inhibitor	pooled human liver microsomes	pH 7.4, reversible inhibition	–	IC50	> 0.1 mM
COc1ccc2c3c([nH]c2c1)[C@H](CC(C)C)N1C(=O)[C@H](CC(=O)NC(C)C)NC(=O)[C@@H]1C3	ABCG2	inhibitor, measured: protoporphyrin IX	A549	0.05 µM, 2 h, with: 1 mM ALA	–	inhibition	35.3% and -3.04% and -1.12% and 29.7%
CC(=O)NCC(=O)O	–	binding, equilibrium dialysis LC-MS	–	5 µM, thermostabilized A2AR-BRIL construct	relative to: no-protein control, direction not given	z-scored log2 fold change	0.354

Repeated from above:
SMILES	tested on	test	system	conditions	how to read	endpoint	value
O=C(O)Cn1ccc2ccccc2c1=O	Ubiquitin carboxyl-terminal hydrolase 49, ZnF-UBD domain (USP49, Homo sapiens, UniProt Q70CQ1)	–	–	–	–	Kd	> 1 mM
